Measurements pooled from the literature.
Each numbered part is a random draw from the data of one study; scales do not carry over between parts. Changes are numbered by the printed parent chain.

Study 1
Target: Histone acetyltransferase KAT6A, winged helix 1, GST fusion (KAT6A, Homo sapiens, UniProt Q92794, residues 1-85)
Method: protein binding microarray
Form: double-stranded DNA, one strand shown
Medium: in vitro
Tested at: not given
Setting: 8-mer, flanks averaged, mean of 2 arrays, mostly near background
Relative to: not given
Direction: higher = stronger binding
Target sequence (chain): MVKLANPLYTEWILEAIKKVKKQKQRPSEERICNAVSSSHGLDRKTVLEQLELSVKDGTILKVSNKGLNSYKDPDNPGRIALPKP
Oligonucleotide	E-score
CGTTGCAC	-0.0226
CGCAGAAA	0.0738
ACACATAG	-0.22
CTACCGAC	0.129
AATATCCG	0.128
AGATGAGA	-0.235
AATGAGGC	0.0559
AAAATAAT	-0.125
AGGATTCG	-0.145
AATCTCTA	-0.192
CCCGCGCC	0.386
CCTGAACC	-0.14
CAAGTGCG	0.131
GGGCATCA	-0.0768
ACATTAAA	-0.0908
ATGGCAAG	0.0224
ATAAGCTG	-0.153

Study 2
Target: PABPC1L2, full length, GST fusion (mouse, UniProt A0ABA7IW68)
Method: RNAcompete
Form: RNA
Medium: in vitro
Tested at: 20 nM
Setting: 7-mer, probes averaged, single round
Relative to: mean of 7-mers
Direction: higher = stronger binding
Target sequence (chain): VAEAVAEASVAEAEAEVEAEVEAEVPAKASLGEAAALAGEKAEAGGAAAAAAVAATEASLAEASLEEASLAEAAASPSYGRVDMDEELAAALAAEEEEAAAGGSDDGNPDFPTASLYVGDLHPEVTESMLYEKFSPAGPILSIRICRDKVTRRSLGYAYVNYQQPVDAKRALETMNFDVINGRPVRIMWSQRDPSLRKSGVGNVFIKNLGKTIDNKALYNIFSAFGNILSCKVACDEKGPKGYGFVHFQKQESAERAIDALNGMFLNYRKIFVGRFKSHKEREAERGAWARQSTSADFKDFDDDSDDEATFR
Oligonucleotide	7-mer Z-score
CGAAGGU	-0.19
UUAUCCU	-0.278
UUGUAGA	-0.238
AAACGAC	0.871
GGCAGCU	0.0968
AGGGCGG	0.626
AGGCUUG	0.017
UAAACAG	2.7
GAUGACC	-0.19
CAUAAUG	-0.179
UGCAGAG	-0.0573
GACCUUU	-0.186
CUGCGCA	-0.22
GUGCCGA	-0.0409
CUUCGAG	-0.157
AAUGCCC	0.000733
GCCAGGG	0.151
GAAGUAA	0.0678
AUUCAGU	-0.182
UCAACCU	-0.26
GCUUGAG	-0.0101

Study 3
Target: Centromere-binding protein 1, full length, His-tagged (CBF1, Saccharomyces cerevisiae, UniProt P17106, residues 1-351)
UniProt P17106, sequence (whole entry, looked up): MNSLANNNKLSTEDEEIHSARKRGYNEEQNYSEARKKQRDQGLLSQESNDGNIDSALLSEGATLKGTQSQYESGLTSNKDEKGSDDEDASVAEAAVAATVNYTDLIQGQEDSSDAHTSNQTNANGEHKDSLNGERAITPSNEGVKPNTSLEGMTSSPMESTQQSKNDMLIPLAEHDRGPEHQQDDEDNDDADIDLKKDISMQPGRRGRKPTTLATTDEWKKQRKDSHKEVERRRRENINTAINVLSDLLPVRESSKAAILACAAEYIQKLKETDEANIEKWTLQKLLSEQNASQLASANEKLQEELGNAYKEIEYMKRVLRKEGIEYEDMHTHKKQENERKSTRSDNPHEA
Method: competition protein-binding microarray
Form: double-stranded DNA, one strand shown
Medium: in vitro
Tested at: 2 µM
Setting: whole 60-bp probe, lowest competitor level
Together with: Pho4 competitor, 0.05 µM
Direction: higher = stronger binding
Shared flanks, not repeated: … GTCTTGATTCGCTTGACGCTGCTG
Oligonucleotide	fluorescence intensity
CGGGGTTAAGTTTGCTAGGTGGGTGGCTTGCAGCAG	73.8 a.u.
TGCGCAACAACTTTTCACGTGGCGTTATGTCTAGAA	801 a.u.
ATGCTGGGGATGAAACACGTTGGACGTTTTGGGGCG	86.8 a.u.
CATCCCACCCAATCGCACGGGTCTTCTGTGCGAATG	68.2 a.u.
CGTCCTAGTGATTGGTGGGTGGGTGCCATGAGGAAG	81.3 a.u.
GCACAAGGAATTGCTGGCGTGCTAATTCTCGACCTT	69.6 a.u.
TTGGATCTGCAAAATCACATGATTGCCCCAGTACTT	861 a.u.
CTTCTGTAAATTTGATCGGTGGGTGGACGCGCCCCG	76 a.u.
GAGGGCACTTTCTGGCACATGCGGCCGCAACAAGGA	80.3 a.u.
TTGCGTTTACGCTCGCGCGTGGGACAACTAACGCAA	63 a.u.
AAAAGACCATCCCATCACGTGACTCGTTTTTCCTGC	22600 a.u.
CTTCCAACAAACCATCACGCTGTCGTATCTCAATTG	130 a.u.
TGCGGGTACTTTGAGAGCGTGTCCTAACTTTGGCTT	59.8 a.u.
CCATCTGCAGGACATCACATGCAAGCACTTGAAGCT	395 a.u.

Study 4
Target: RING finger protein unkempt homolog, zinc fingers 1-6, SBP tag (UNK, Homo sapiens, UniProt Q9C0B0, residues 30-357)
UniProt Q9C0B0, sequence (30-357, looked up): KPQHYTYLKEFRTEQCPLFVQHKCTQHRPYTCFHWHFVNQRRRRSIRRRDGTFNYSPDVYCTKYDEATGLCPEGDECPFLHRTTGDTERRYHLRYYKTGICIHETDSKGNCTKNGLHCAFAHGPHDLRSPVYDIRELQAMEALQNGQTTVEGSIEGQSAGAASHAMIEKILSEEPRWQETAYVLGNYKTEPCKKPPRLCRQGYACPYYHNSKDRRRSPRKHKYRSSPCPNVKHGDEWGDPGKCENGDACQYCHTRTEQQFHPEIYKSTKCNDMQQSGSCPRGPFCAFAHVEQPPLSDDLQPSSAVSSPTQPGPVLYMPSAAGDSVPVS
Method: RNA Bind-n-Seq
Form: RNA
Medium: in vitro
Tested at: 100 nM
Setting: RNA with constant flanks, vertebrate orthologous sites, ends assumed
Relative to: input RNA pool
Direction: higher = stronger binding
Shared flanks, not repeated: GGGAGUUCUACAGUCCGACGAUC … CAACAGAGGAUUGAGCAUCA
Oligonucleotide	bound/input enrichment [ratio]
AGGACCUCCAGUAGGCAAAUUCAGGGAGAGAGAGGCUUCAGGGAAUAUAAACCCAGAUAGCAGUGAUCAUGAAGUAUAACCUUGACAUAACUAAAUGAUUCGGGGGAAUGAUGGCAACUU	1.15
CCUACAAUAAUGAAAACUUACAGGAAUUUUUUUAUUUUUCAUUUUCCCCUUAGGCAUACUUAGUCUUUUUUUCCCCCCAGGCAGAUCAUUCUGAGUGUGCGAGUGUGUGCACAUGUUAUA	1.56
AUCCCUCAGUGACAGUAUGCCGUCCGUAGCAGAUUCCCACUCGAGUCACUUUUCUGAAUUUAGUUGUUCUGACCUAGAAAGCAUGAAAACUUCUUGUAGUCAUGGUUCCACUGAUUAUCA	0.441
UCCCAGCACUUUGAUAAAAAGUGUGGACUGGUUGCUCGUAUUUUCCUUAUUCUUUUUAAUUAGUUUUAUUAUGUAUGCUACCAUUCGAACUGAGAGCAUUCGGUGGCUAAUUCCAGGACA	1.48
UAGCAAGAGAACCAAGCAGUAGUAUUGUGGAUUUUUUUUUUUUGUAAAUGUAAAAAUAAUUAGAUCCAGACUUUGUUUCCUUCUUCAAUUUUAAAAAUAAAAAAUACCUCAGUGCUAUGU	0.364
AUCACUCAGUGACAGUAUGCCAUCUGUAGCAGAUUCUCACUCUAGUCAUUUUUCUGAAUUUAGUUGUUCUGACCUAGAAAGCAUGAAAACUUCUUGUAGCCAUGGCUCCAAUGAUUAUCA	2.19
ACCAUGUACCCUGCUGUAUAAUAGACAACCGAGACACUUGUCAACUAUUGAUACAGGUGUUAGUCCCAAACCACUUUUUAUAUGUUUUAAAUUUUGAAAUUCAAGUGUAUCUGCCAUAAC	1.31
GGGGAUGGGGGGUGGGUAAGGGAUGUGGAUGAUAGGAUGUUAUUGGGAUUUUUAAGUGUUCCAGGGGUGGUUUUCCUUUUUCCUGUUUUUUUGUUUGUUUGUUUGUUUGUUUCUGUUCUU	1.06
AAUUACACUAAUACUGAAGUUAAAAUUAAAAGGAUAUCCAAGGUGAUGAUAAAGUGUGUGUUGGUAGUUACUAAAAGAACCUUAGCUGUUAUUGCCUUGUAUUUCUAUCCCUUGUUUCAG	0.387
UACAAUCUUACACUUAAACUGGUAUUUUCAAGCAAUAGGACAUUUUCUUUUUUUACAGAUUAGUGUAUCUGGUUUCUACAUGGAAGACUAAACUCAUGCUUAUUGCUAAAUGUGGUCUUU	0.712
AUCUCUCAUUUUGUAUGUCCAAAAAAGGUUUUGAAUUUUUGAAUAAUUGCUGGUUUUAGUUAGCUCUGCCCUCAUGAAGUAUUACUAUAAUUCACCACAAACAGAUAUCUGUCUGAAUUA	0.582

Study 5
Target: CREBL2, bZIP domain (human)
Method: DHFR protein complementation
Medium: yeast
Setting: single substitutions, most at no-binding floor
Relative to: wild-type JUN-FOS pair
Direction: higher = stronger binding
Starting sequence: JUN, bZIP domain (human); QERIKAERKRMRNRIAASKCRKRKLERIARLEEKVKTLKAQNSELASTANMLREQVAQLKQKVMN; partner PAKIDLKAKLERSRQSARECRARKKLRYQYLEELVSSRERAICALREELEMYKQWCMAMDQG
Substitution	binding fitness [natural log]
V56N	-1.57
R30L	-1.36
M51A	-1.41
Q55H	-1.53
L52K	-1.58
V35K	-1.39
T37S	-1.44
A46Q	-1.54
E32R	-1.48
L31M	-1.48
K39Q	-1.15

Study 6
Target: ABI1, truncated, D143A, DHFR fusion (Arabidopsis thaliana)
Method: DHFR PCA, deep sequencing
Medium: yeast
Setting: methotrexate growth selection, single substitutions
Together with: (+)-ABA 2500 µM
Relative to: wild-type fitted maximum
Direction: higher = stronger binding
Starting sequence: PYL1, truncated, DHFR fusion (Arabidopsis thaliana); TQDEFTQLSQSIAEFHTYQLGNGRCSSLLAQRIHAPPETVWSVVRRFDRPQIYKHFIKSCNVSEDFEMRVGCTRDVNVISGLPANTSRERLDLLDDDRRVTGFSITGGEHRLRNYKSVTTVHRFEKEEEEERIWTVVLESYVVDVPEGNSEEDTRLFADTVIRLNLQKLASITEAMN
Substitution	relative binding score
I105K	23.1%
A35T	89.1%
T106L	106%
I12L	89.9%
P50G	15.5%
F66G	101%
E14P	66.2%
R98V	108%
Q51Y	98%
V161H	55.1%
A84E	62.5%
R32V	91.1%
E109R	98.8%
V76R	36.5%
G21K	102%

Study 7
Target: CCND3, cyclin fold, Cln2 fusion (human)
Method: yeast growth competition, sequencing
Medium: yeast
Setting: strong parent motif
Relative to: not given
Direction: higher = stronger binding
Starting sequence: INSM1 docking peptide (human); PKAIRKLHFEDEV
Substitution	normalised enrichment score
PKAIRKLSFEDEV [H8S]	1.29
PKAYRKLHFEDEV [I4Y]	0.00855
PKAIYKLHFEDEV [R5Y]	0.475
PKAIRKLHFEDKV [E12K]	0.92
PKAIRKLHQEDEV [F9Q]	0.0235
PKASRKLHFEDEV [I4S]	0.888
PKAIRKLHFEDHV [E12H]	1.14
PKAIRKLHFNDEV [E10N]	0.552
PKPIRKLHFEDEV [A3P]	0.382
PKAIRKLKFEDEV [H8K]	0.922
PKAIRKLHFEDMV [E12M]	1.06
PKAPRKLHFEDEV [I4P]	0.295
PKDIRKLHFEDEV [A3D]	-0.263
PKARRKLHFEDEV [I4R]	1.05
PKAIRKLHFTDEV [E10T]	0.699
PRAIRKLHFEDEV [K2R]	1.29
PKAIRKDHFEDEV [L7D]	-0.0192
PKAMRKLHFEDEV [I4M]	0.95

A few entries again (study 4):
Oligonucleotide	bound/input enrichment [ratio]
UAGCAAGAGAACCAAGCAGUAGUAUUGUGGAUUUUUUUUUUUUGUAAAUGUAAAAAUAAUUAGAUCCAGACUUUGUUUCCUUCUUCAAUUUUAAAAAUAAAAAAUACCUCAGUGCUAUGU	0.364
AUCACUCAGUGACAGUAUGCCAUCUGUAGCAGAUUCUCACUCUAGUCAUUUUUCUGAAUUUAGUUGUUCUGACCUAGAAAGCAUGAAAACUUCUUGUAGCCAUGGCUCCAAUGAUUAUCA	2.19
ACCAUGUACCCUGCUGUAUAAUAGACAACCGAGACACUUGUCAACUAUUGAUACAGGUGUUAGUCCCAAACCACUUUUUAUAUGUUUUAAAUUUUGAAAUUCAAGUGUAUCUGCCAUAAC	1.31
GGGGAUGGGGGGUGGGUAAGGGAUGUGGAUGAUAGGAUGUUAUUGGGAUUUUUAAGUGUUCCAGGGGUGGUUUUCCUUUUUCCUGUUUUUUUGUUUGUUUGUUUGUUUGUUUCUGUUCUU	1.06
AAUUACACUAAUACUGAAGUUAAAAUUAAAAGGAUAUCCAAGGUGAUGAUAAAGUGUGUGUUGGUAGUUACUAAAAGAACCUUAGCUGUUAUUGCCUUGUAUUUCUAUCCCUUGUUUCAG	0.387
UACAAUCUUACACUUAAACUGGUAUUUUCAAGCAAUAGGACAUUUUCUUUUUUUACAGAUUAGUGUAUCUGGUUUCUACAUGGAAGACUAAACUCAUGCUUAUUGCUAAAUGUGGUCUUU	0.712
AUCUCUCAUUUUGUAUGUCCAAAAAAGGUUUUGAAUUUUUGAAUAAUUGCUGGUUUUAGUUAGCUCUGCCCUCAUGAAGUAUUACUAUAAUUCACCACAAACAGAUAUCUGUCUGAAUUA	0.582
